Published values of several laboratories.
Compare with care: the assays were run in different laboratories. Numbers after ± are the reported error.

Structure (SMILES)	test system	conditions	quantity	result
C[S]1CC[S]2CC[P](CO)(CO)[99Tc+]12.[C-]#[O+].[C-]#[O+].[C-]#[O+]	female CF-1 mouse, large intestine	intravenous, 1 h	tissue uptake	19.1 %ID/g
CN[C@](C)(C[18F])C(=O)O	SCID mouse DU-145 xenograft, pancreas	120 min post injection	tissue uptake	18 ± 5.1 %ID/g
N=C(N)NCc1ccc(C(=O)NCCCC[C@H](NC(=O)N[C@@H](CCC(=O)O)C(=O)O)C(=O)O)cc1[211At]	SCID mouse, PC-3 xenografts, blood	21 h	tissue uptake	0.09 ± 0.07 %ID/g
C=Cc1cc(O)cc2nc(-c3ccc(O)c([76Br])c3)oc12	female C57BL/6 mouse, blood	3 h, high dose	tissue uptake	0.21 ± 0.06 %ID/g
O=C(O)CC[C@H](NC(=O)O[C@@H](CCCCNC(=O)c1ccc([18F])cc1)C(=O)O)C(=O)O	mouse, PC-3 PIP/flu xenografts, kidney	60 min	tissue uptake	6.97 ± 7.02 %ID/g
N=C(N)NCc1ccc(C(=O)NCCCC[C@H](NC(=O)CCCCCCC(=O)NCCCC[C@H](NC(=O)N[C@@H](CCC(=O)O)C(=O)O)C(=O)O)C(=O)O)cc1[131I]	SCID mouse, PC-3 xenografts, kidneys	1 h	tissue uptake	121 ± 24 %ID/g
COC(=O)C[C@](O)(CCCC(C)(C)OC(C)=O)C(=O)O[C@@H]1C(OC)=C[C@]23CCCN2CCc2cc4c(cc2[C@H]13)OCO4	CD1 mouse, pancreas	subcutaneous, 1 mg/kg, 2 h	tissue concentration	180 ng/mL
N=C(N)NCc1ccc(C(=O)NCCCC[C@H](NC(=O)N[C@@H](CCC(=O)O)C(=O)O)C(=O)O)cc1[131I]	SCID mouse, PC-3 xenografts, bone	21 h	tissue uptake	0.03 ± 0.01 %ID/g
CCCCCCCC(=O)NCCCC[C@H](NC(=O)[C@H](Cc1ccccc1)NC(=O)[C@@H](CCCNC(=N)N)NC(=O)[C@@H](N)Cc1ccc(O)cc1)C(N)=O	CD-1 mouse, male, spleen	intravenous, 3 mg/kg, 180 min	tissue concentration	1310 ± 385 ng/g
Cn1cc(-c2cccc(CN3CCC4(CC3)COc3c4ccc4c3CN([C@H]3CCC(=O)NC3=O)C4=O)c2)cn1	mouse Crbn I391V, thymus	oral, 30 mg/kg, 6 h	tissue concentration	413 ng/g

A few entries again:
Structure (SMILES)	test system	conditions	quantity	result
CN[C@](C)(C[18F])C(=O)O	SCID mouse DU-145 xenograft, pancreas	120 min post injection	tissue uptake	18 ± 5.1 %ID/g
